Measured values of several laboratories.
± gives the spread as reported.
Cell line: MCF7

C#CCOCC1=C(C(=O)OCC)C(c2cccc(Cl)c2)N2C=CSC2=N1 (centres unmarked)
viability (MTT; 100 µM, 48 h): 58%

CC(=O)N1CCCC[C@H]1C(=O)NC(C)(C)C(=O)N1CCCC[C@H]1C(=O)NC(C)(C)C(=O)NC(C)(C)C(=O)N[C@@H](CC(C)C)C(=O)NCCC(=O)NCC(=O)NC(C)(C)C(=O)NC(C)(C)C(=O)N1CCCC[C@H]1C(=O)NC(C)(C)C(=O)NCC(=O)N[C@@H](CC(C)C)C(=O)NC(C)(C)C(=O)N[C@@H](CC(C)C)C[N+]1=C2CCCN2CCC1
GI50 (cell growth or viability, SRB; 48 h): 37 nM

Cc1ccc(NC(=O)C2C(=O)C(c3ccccc3)c3ccc4c(c32)C(=O)c2ccccc2C4=O)cc1 (centres unmarked)
selectivity index (relative to: Vero IC50 over MCF7 IC50): 1.1

CC(N)C(O)CCCCCCCCCCCCCCC(=O)CCCCCCCC(O)C(C)N (centres unmarked)
selectivity index (cytotoxicity, resazurin; relative to: MCF-12A over MCF7): 2.7

CC(C)c1cnn2c(NCc3ccccc3)cc(N[C@@H](CO)[C@H](O)CO)nc12
surviving cells (sulforhodamine B; 2.5 µM): 10%

O=C1c2ccccc2C(=O)c2c1ccc1c2C(C(=O)NCc2ccccc2)C(=O)C1c1ccccc1 (centres unmarked)
selectivity index (relative to: Vero IC50 over MCF7 IC50): 2.51

CC(C)C[C@@H](NC(=O)[C@H](C)NC(=O)CNC(=O)[C@@H](NC=O)C(C)C)C(=O)N[C@@H](C)C(=O)N[C@@H](C(=O)N[C@H](C(=O)N[C@@H](C(=O)N[C@@H](Cc1c[nH]c2ccccc12)C(=O)N[C@H](CC(C)C)C(=O)N[C@@H](Cc1c[nH]c2ccccc12)C(=O)N[C@H](CC(C)C)C(=O)N[C@@H](Cc1c[nH]c2ccccc12)C(=O)N[C@H](CC(C)C)C(=O)N[C@@H](Cc1c[nH]c2ccccc12)C(=O)NCCO)C(C)C)C(C)C)C(C)C
LC50 (sulforhodamine B; 48 h): > 5000 nM

CN1C(=O)C2(Cc3ccc(CC45SSC(CO)(C(=O)N4C)N(C)C5=O)cc3)SSC1(CO)C(=O)N2C (racemic)
mRNA level change (microarray, refers to: TFRC; 600 nM, unit not given, together with: deferoxamine 300 µM; relative to: deferoxamine alone): -1.8

Cc1cc(C)n2c1C=C1C=CC(CCC(=O)NCCCCCC(=O)NCCOCCOCCOCCOCCOCCOCCNC(=O)[C@H](Cc3c[nH]c4ccccc34)NC(=O)[C@@H](CC(C)C)NC(=O)[C@H](Cc3c[nH]c4ccccc34)NC(=O)[C@@H](CC(C)C)NC(=O)[C@H](Cc3c[nH]c4ccccc34)NC(=O)[C@@H](CC(C)C)NC(=O)[C@H](Cc3c[nH]c4ccccc34)NC(=O)[C@H](NC(=O)[C@@H](NC(=O)[C@H](NC(=O)[C@H](C)NC(=O)[C@@H](CC(C)C)NC(=O)[C@H](C)NC(=O)CNC(=O)[C@@H](NC=O)C(C)C)C(C)C)C(C)C)[C@H](C)O)=[N+]1[B-]2(F)F
GI50 (cell growth or viability, SRB; 48 h): 2800 nM

CC(=O)N1CCCC[C@H]1C(=O)NC(C)(C)C(=O)N1CCCC[C@H]1C(=O)NC(C)(C)C(=O)NC(C)(C)C(=O)N[C@@H](CC(C)C)C(=O)NC[C@H](C)C(=O)NCC(=O)NC(C)(C)C(=O)NC(C)(C)C(=O)N1CCCC[C@H]1C(=O)NC(C)(C)C(=O)NCC(=O)N[C@@H](CC(C)C)C(=O)NC(C)(C)C(=O)N[C@@H](CC(C)C)C[N+]1=C2CCCN2CCC1
GI50 (cell growth or viability, SRB; 48 h): 14 nM

O=C1c2ccccc2C(=O)c2c1ccc1c2C(C(=O)Nc2ccccc2Cl)C(=O)C1c1ccccc1 (centres unmarked)
CC50 (cytotoxicity): 52.67 ± 0.02 µg/mL

Cc1cc(C)n2c1C=C1C=CC(CCC(=O)NCCCCCC(=O)NCCOCCOCCOCCOCCOCCOCCNC(=O)[C@H](Cc3c[nH]c4ccccc34)NC(=O)[C@@H](CC(C)C)NC(=O)[C@H](Cc3c[nH]c4ccccc34)NC(=O)[C@@H](CC(C)C)NC(=O)[C@H](Cc3c[nH]c4ccccc34)NC(=O)[C@@H](CC(C)C)NC(=O)[C@H](Cc3c[nH]c4ccccc34)NC(=O)[C@H](NC(=O)[C@@H](NC(=O)[C@H](NC(=O)[C@H](C)NC(=O)[C@@H](CC(C)C)NC(=O)[C@H](C)NC(=O)CNC(=O)[C@@H](NC=O)C(C)C)C(C)C)C(C)C)C(C)C)=[N+]1[B-]2(F)F
LC50 (sulforhodamine B; 48 h): > 3000 nM

CC(=O)N1CCCC[C@H]1C(=O)NC(C)(C)C(=O)N1CCCC[C@H]1C(=O)NC(C)(C)C(=O)NC(C)(C)C(=O)N[C@@H](CC(C)C)C(=O)NCCC(=O)N[C@H](C)C(=O)NC(C)(C)C(=O)NC(C)(C)C(=O)N1CCCC[C@H]1C(=O)NC(C)(C)C(=O)NCC(=O)N[C@@H](CC(C)C)C(=O)NC(C)(C)C(=O)N[C@@H](CC(C)C)C[N+]1=C2CCCN2CCC1
GI50 (cell growth or viability, SRB; 48 h): 104 nM

CC(=O)N[C@@H](CCCNC(=N)N)C(=O)N[C@@H](CCCNC(=N)N)C(=O)N[C@@H](CCCNC(=N)N)C(=O)N[C@@H](CCCNC(=N)N)C(=O)N[C@@H](CCCNC(=N)N)C(=O)N[C@@H](CCCNC(=N)N)C(=O)N[C@@H](CCCNC(=N)N)C(=O)N[C@@H](CCCNC(=N)N)C(=O)N[C@@H](CCCNC(=N)N)C(=O)N[C@@H](CCCNC(=N)N)C(=O)NCC(=O)N[C@@H](COP(=O)(O)O)C(=O)N1CCC[C@H]1C(=O)N[C@H](C(=O)N[C@@H](Cc1ccccc1)C(=O)O)[C@@H](C)O
G2/M cells (flow cytometry; 100 µM, 24 h): 23.9 ± 2.23%

C=CC[P](c1ccccc1)(c1ccccc1)[Pt]([S]c1ccccn1)([S]c1ccccn1)[P](CC=C)(c1ccccc1)c1ccccc1
early apoptotic cells (annexin V/7-AAD flow cytometry; 2.5 µM): 11%

O=C1c2ccccc2C(=O)c2c1ccc1c2C(C(=O)Nc2ccc(Br)cc2)C(=O)C1c1ccccc1 (centres unmarked)
selectivity index (relative to: Vero IC50 over MCF7 IC50): 1.45

CC/C=C\C/C=C\C/C=C\C/C=C\C/C=C\C/C=C\CCC(=O)Nc1ccn(C2OC(CO)C(O)C2(F)F)c(=O)n1 (centres unmarked)
CC50: 42300 nM

CC/C(=C\CC[C@H](C)C[C@@H](C)CC[C@H](O)[C@H](C)C(=O)CC(O)[C@H](C)[C@@H](C)OC(=O)C[C@@H](O)C1=C(C)C(=O)OC1=O)C(O)CC(=O)O (some centres unmarked)
inhibition (cell growth or viability, MTT; 20 µM, 48 h): 8%

CCCCCCCCC=CCCCCCCCC(=O)OC(COC(=O)Cc1c(C)n(C(=O)c2ccc(Cl)cc2)c2ccc(OC)cc12)COP(=O)([O-])OCC[N+](C)(C)C (centres unmarked)
selectivity index (SRB; relative to: MCF-10A IC50 over MCF7 IC50): 3.12

O=C1c2ccccc2C(=O)c2c1ccc1c2C(C(=O)Nc2ccccc2)C(=O)C1c1ccccc1 (centres unmarked)
CC50 (cytotoxicity): 46.4 ± 0.05 µg/mL

C[C@@H](N)[C@H](O)CCCCCCCC(=O)CCCCCCCCCCCCCC[C@@H](O[C@@H]1O[C@H](CO)[C@@H](O)[C@H](O)[C@H]1O)[C@@H](N)CO
selectivity ratio (relative to: IC50 MCF-12A over IC50 MCF7): 3.4

CC(=O)N1CCCC[C@H]1C(=O)NC(C)(C)C(=O)N1CCCC[C@H]1C(=O)NC(C)(C)C(=O)NC(C)(C)C(=O)N[C@@H](CC(C)C)C(=O)N[C@@H](C)CC(=O)NCC(=O)NC(C)(C)C(=O)NC(C)(C)C(=O)N1CCCC[C@H]1C(=O)NC(C)(C)C(=O)NCC(=O)N[C@@H](CC(C)C)C(=O)NC(C)(C)C(=O)N[C@@H](CC(C)C)C[N+]1=C2CCCN2CCC1
GI50 (cell growth or viability, SRB; 48 h): 8.8 nM

O=C1c2ccccc2C(=O)c2c1ccc1c2C(C(=O)Nc2ccc(Cl)cc2)C(=O)C1c1ccccc1 (centres unmarked)
CC50 (cytotoxicity): > 100 µg/mL

CC=C(C)C(=O)OC1C(O)C2OC(COC(=O)CCCCCCCCCC(CCCCC)OC3OC(C)C(OC(C)=O)C(O)C3O2)C1OC(=O)C=Cc1ccccc1 (centres unmarked)
selectivity index (relative to: IC50 MCF-10A over IC50 MCF7): 0.93

Cc1nn(-c2ccccc2)c2c1C(c1ccc3c(c1)OCO3)N(C(=O)c1ccncc1)N2 (centres unmarked)
CC50 (cytotoxicity, MTT; 72 h): 69.12 ± 0.11 µg/mL

COc1ccc(NC(=O)C2C(=O)C(c3ccccc3)c3ccc4c(c32)C(=O)c2ccccc2C4=O)cc1 (centres unmarked)
CC50 (cytotoxicity): 63.06 ± 0.02 µg/mL

For quick reference, copied from above:
CC/C(=C\CC[C@H](C)C[C@@H](C)CC[C@H](O)[C@H](C)C(=O)CC(O)[C@H](C)[C@@H](C)OC(=O)C[C@@H](O)C1=C(C)C(=O)OC1=O)C(O)CC(=O)O (some centres unmarked)
inhibition (cell growth or viability, MTT; 20 µM, 48 h): 8%

CCCCCCCCC=CCCCCCCCC(=O)OC(COC(=O)Cc1c(C)n(C(=O)c2ccc(Cl)cc2)c2ccc(OC)cc12)COP(=O)([O-])OCC[N+](C)(C)C (centres unmarked)
selectivity index (SRB; relative to: MCF-10A IC50 over MCF7 IC50): 3.12
